Measured values pooled from the literature.
Every numbered part comes from another study and shows a few of its results, in no order.

Block 1
Target: Fragile X messenger ribonucleoprotein 1, C-terminal low-complexity region (Fmr1, Mus musculus, UniProt P35922)
Technique: RNA Bind-n-Seq
Form: RNA
Sample: in vitro
Concentration: 200 nM
Setting: whole 134-nt RNA, ends assumed
Together with: 150 mM KCl
Baseline: input library
Direction: higher = stronger binding
Measurement: log2 enrichment
GGGAGUUCUACAGUCCGACGAUCGUCCUGUGCUACACAUCGUAUGUACCGAAUCAAAUUUAAACCCCCCCAAACCCCCAAAAAAGUAUUAUGUUACGCCGUUCGGAUCUGCACUGGAAUUCUCGGGUGUCAAGG: -0.217
GGGAGUUCUACAGUCCGACGAUCAGUCCUGUGCUACACAUCGUAUGUACCGAAUCGGAAAGGAAAAAAAGGAAAAAAAGGAAAGUAUUAUGUUACGCCGUUCGGAUCUGCACUUGGAAUUCUCGGGUGUCAAGG: -0.604
GGGAGUUCUACAGUCCGACGAUCGGUGUUGCUGGAAGAAGCCAAGGAUUUGCUCUCUGACUGGCUGGAUUCUACACUUGGCUGUGAUGUCACUGACAAUUCCAUCUUCUCCAAUGGAAUUCUCGGGUGUCAAGG: 0.493

Block 2
Target: Histone acetyltransferase KAT6A, both winged helices, GST fusion (KAT6A, Homo sapiens, UniProt Q92794, residues 1-181)
Technique: protein binding microarray
Form: double-stranded DNA, one strand shown
Sample: in vitro
Concentration: not given
Setting: 8-mer, flanks averaged, mean of 2 arrays, mostly near background
Baseline: not given
Direction: higher = stronger binding
Measurement: E-score
Target sequence (chain): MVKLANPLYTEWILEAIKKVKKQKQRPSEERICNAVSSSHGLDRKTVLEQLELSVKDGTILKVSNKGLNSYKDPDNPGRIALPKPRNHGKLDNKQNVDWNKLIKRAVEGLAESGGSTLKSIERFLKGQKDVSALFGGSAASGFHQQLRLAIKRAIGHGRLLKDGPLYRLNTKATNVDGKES
AAGAGCAC: -0.141
ATGCGCCA: 0.147
GCGGTAAA: 0.274
CCCGCCGG: 0.318

Block 3
Target: TAR DNA-binding protein 43, full length, His tag (TARDBP, Homo sapiens, UniProt Q13148, residues 1-414)
Technique: RNA Bind-n-Seq
Form: RNA
Sample: in vitro
Concentration: 20 nM
Setting: 6-mer, flanks averaged, single round
Together with: 150 mM KCl
Baseline: input library
Direction: higher = stronger binding
Measurement: 6-mer enrichment (R)
AAAAGA: 0.67
UUUAGA: 0.62
GGCUGA: 1.55
GCUCAC: 0.659
AAACGA: 0.607
AAUGCC: 0.668
CUUCCG: 0.593

Mixed results
PhoQ, residues 284 288 289 292 302 303 SVTLVV  fold induction (PhoP, residues 12 14 15 18 19 LHTVM (Escherichia coli, UniProt P23836); Sort-seq, item: YFP reporter; E. coli; PhoQ-PhoP variant library, together with: 10 µM Mg2+; baseline: high Mg2+ state, higher = stronger signaling): 13.6

A few entries again (block 3):
UUUAGA: 0.62
GGCUGA: 1.55
